{"data": "Results gathered from unrelated publications", "note": "Numbers after ± are the reported error.", "sequence of UniProt Q53GS9 (whole entry, looked up)": "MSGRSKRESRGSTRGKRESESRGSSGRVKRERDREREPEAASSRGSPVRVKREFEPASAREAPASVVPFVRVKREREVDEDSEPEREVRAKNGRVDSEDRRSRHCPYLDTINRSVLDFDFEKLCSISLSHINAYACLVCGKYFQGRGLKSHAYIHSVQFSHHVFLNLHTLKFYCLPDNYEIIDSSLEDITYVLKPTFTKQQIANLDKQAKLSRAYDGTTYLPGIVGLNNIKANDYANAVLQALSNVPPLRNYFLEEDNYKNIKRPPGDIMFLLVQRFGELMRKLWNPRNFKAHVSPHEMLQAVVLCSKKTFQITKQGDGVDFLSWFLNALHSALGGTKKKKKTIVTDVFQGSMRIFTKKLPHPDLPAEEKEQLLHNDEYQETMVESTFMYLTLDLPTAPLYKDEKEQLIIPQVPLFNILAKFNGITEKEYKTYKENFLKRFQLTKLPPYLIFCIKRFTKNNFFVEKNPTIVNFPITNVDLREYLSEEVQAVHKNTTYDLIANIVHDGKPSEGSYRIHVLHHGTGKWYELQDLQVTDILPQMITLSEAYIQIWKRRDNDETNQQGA"}
{"SMILES": "CSc1cc(C)nc(SC)c1NC(=O)CN1CCN(CCSc2nc3ccccc3[nH]2)CC1.Cl", "test system": "mouse Crl:CD1 (ICR), female, olfactory bulb", "setting": "intranasal, 10 µL of CA solution once daily for 7 days, 120 min after last dose, LLOQ 1 ng/g", "endpoint": "tissue concentration", "result": "not detected"}
{"SMILES": "NC/C(=C\\F)COc1cccc(Cn2c(=S)[nH]c(=O)c3[nH]cnc32)c1", "test system": "C57BL/6J mice, liver", "setting": "oral, 15 mg/kg single, 2 h", "endpoint": "tissue concentration", "result": "1740 ng/mL"}
{"SMILES": "N=C(N)NCCC[C@H](NCC(=O)[C@@H](O)[C@H](O)[C@H](O)CO)C(=O)O", "assay": "UPLC-MS/MS", "test system": "C57BL/6J mice, striatum", "setting": "intraperitoneal, dose not given, 15 min", "endpoint": "tissue concentration", "result": "7 ± 3 pmol/mg tissue"}
{"SMILES": "O=c1cc(-c2ccc(O)cc2)oc2c([C@@H]3OC[C@H](O)[C@H](O)[C@H]3O)c(O)c([C@@H]3O[C@H](CO)[C@@H](O)[C@H](O)[C@H]3O)c(O)c12", "assay": "UHPLC-MS/MS", "test system": "C57BL/6J mouse, intestines", "setting": "oral, dose not given", "endpoint": "tissue concentration", "result": "0.27 ng/g"}
{"SMILES": "Cc1sc2ncn(CC(=O)O)c(=O)c2c1C", "tested on": "Ubiquitin carboxyl-terminal hydrolase 39, ZnF-UBD domain (Homo sapiens, UniProt Q53GS9)", "endpoint": "Kd", "result": "> 1000 µM"}
{"SMILES": "CC(=CC(=O)O)CC(=O)O", "assay": "binding, equilibrium dialysis LC-MS", "setting": "5 µM, thermostabilized A2AR-BRIL construct", "how to read": "reference: no-protein control, direction not given", "endpoint": "z-scored log2 fold change", "result": 0.292}
{"SMILES": "Cc1nc2ccc(OCc3ccc(C(F)(F)F)cc3)cc2[nH]1", "test system": "Balb/c mouse, male, liver", "setting": "oral, 10 mg/kg, 72 h", "endpoint": "tissue concentration", "result": "3 ± 0.8 ng/g"}
{"SMILES": "CC(C)C[C@H](NC(=O)C[C@H](O)[C@H](CC(C)C)NC(=O)[C@H](Cc1c[nH]cn1)NC(=O)CNC(=O)[C@@H](NC(=O)[C@H](C)NC(=O)[C@H](Cc1c[nH]c2ccccc12)NC(=O)[C@H](CCC(N)=O)NC(=O)[C@@H](Cc1ccccc1)NC(=O)COCCOCCNC(=O)CN1CCN(CC(=O)O)CCN(CC(=O)O)CCN(CC(=O)O)CC1)C(C)C)C(N)=O [lutetium-177 labelled]", "test system": "female BALB/c nu/nu mice, pancreas", "setting": "intravenous, 50 pmol, 24 h", "endpoint": "tissue uptake", "result": "0.03 ± 0.01 %ID/g"}
{"SMILES": "OCc1nc2ccc(NCc3ccc(C(F)(F)F)cc3)cc2[nH]1", "test system": "Balb/c mouse, male, liver", "setting": "oral, 10 mg/kg, 48 h", "endpoint": "tissue concentration", "result": "5.1 ± 1.1 ng/g"}
{"SMILES": "CN(C(=O)n1cnc(-c2ccc[n+]([O-])c2)c1)[C@H]1CC[C@H](O)CC1", "test system": "rat, cortex", "setting": "oral, 10 mg/kg daily for 5 days, 24 h", "endpoint": "tissue concentration", "result": "8.6 ± 0.4 ng/g"}
{"SMILES": "CCc1c2c(nc3ccc(OC(=O)N4CCC(N5CCCCC5)CC4)cc13)-c1cc3c(c(=O)n1C2)COC(=O)[C@]3(O)CC", "test system": "mouse FVB, intestine", "setting": "intraperitoneal, 50 mg/kg, 24 h", "endpoint": "tissue concentration", "result": "8040 ± 2240 ng/g"}
{"SMILES": "CN(C(=O)n1cnc(-c2cccnc2)c1)[C@H]1CC[C@H](O)CC1", "test system": "rat, hippocampus", "setting": "oral, 10 mg/kg daily for 5 days, 4 h", "endpoint": "tissue concentration", "result": "42.2 ± 7.2 ng/g"}
{"SMILES": "CC(O)(CC(=O)O)CC(=O)O", "assay": "binding, equilibrium dialysis LC-MS", "setting": "5 µM, thermostabilized A2AR-BRIL construct", "how to read": "reference: no-protein control, direction not given", "endpoint": "z-scored log2 fold change", "result": 0.301}
